{"data": "Assay results of several laboratories", "note": "Every numbered part comes from another study and shows a few of its results, in no order. Several values in a cell are separate wells, animals, samples, runs or records."}
{"data": "Study 1", "cell line": "mouse MPNST tumor cells", "method": "high-content immunofluorescence imaging", "measured": "nuclear SOX9", "tested at": "10 µM", "time": "12 h", "notes": "mean of 2 replicates", "relative to": "DMSO control", "direction": "higher = more nuclear SOX9"}
{"SMILES": "O=C1C(=O)c2ccccc2C(O)=C1C1CCC(c2ccc(Cl)cc2)CC1 (stereo not shown)", "nuclear SOX9 intensity": "101 % of DMSO and 95.8 % of DMSO"}
{"SMILES": "CC(C)(C)n1nc(-c2cccc3ccccc23)c2c(N)ncnc21", "nuclear SOX9 intensity": "115 % of DMSO"}
{"SMILES": "Nc1ccccc1NC(=O)c1ccc(CNC(=O)OCc2cccnc2)cc1", "nuclear SOX9 intensity": "128 % of DMSO"}
{"SMILES": "O=C(O)c1cc(=O)c2c(OCC(O)COc3cccc4oc(C(=O)O)cc(=O)c34)cccc2o1", "nuclear SOX9 intensity": "98.6 % of DMSO"}
{"SMILES": "Cc1cnc(C(=O)O)c[n+]1[O-]", "nuclear SOX9 intensity": "114 % of DMSO and 81.9 % of DMSO"}
{"SMILES": "CN1CCN(c2cc(-c3ccccc3)nc(N)n2)CC1", "nuclear SOX9 intensity": "120 % of DMSO"}
{"SMILES": "CC(CCC(=O)O)C1CCC2C3C(O)CC4CC(O)CCC4(C)C3CCC12C (stereo not shown)", "nuclear SOX9 intensity": "96.2 % of DMSO"}
{"SMILES": "CN(C)/N=N/c1[nH]cnc1C(N)=O", "nuclear SOX9 intensity": "97 % of DMSO"}
{"SMILES": "CC(C)C(=O)OCC(=O)[C@@]12O[C@H](C3CCCCC3)O[C@@H]1C[C@H]1[C@@H]3CCC4=CC(=O)C=C[C@]4(C)[C@H]3[C@@H](O)C[C@@]12C", "nuclear SOX9 intensity": "93.7 % of DMSO"}
{"SMILES": "CC1(C)O[C@@H]2C[C@H]3[C@@H]4C[C@H](F)C5=CC(=O)C=C[C@]5(C)[C@H]4[C@@H](O)C[C@]3(C)[C@]2(C(=O)CO)O1", "nuclear SOX9 intensity": "68.3 % of DMSO"}
{"data": "Study 2", "target": "Beta-2 adrenergic receptor (ADRB2, Homo sapiens, UniProt P07550)", "effect on": "binding", "method": "radioligand binding", "tested at": "10 µM", "UniProt P07550, sequence (whole entry, looked up)": "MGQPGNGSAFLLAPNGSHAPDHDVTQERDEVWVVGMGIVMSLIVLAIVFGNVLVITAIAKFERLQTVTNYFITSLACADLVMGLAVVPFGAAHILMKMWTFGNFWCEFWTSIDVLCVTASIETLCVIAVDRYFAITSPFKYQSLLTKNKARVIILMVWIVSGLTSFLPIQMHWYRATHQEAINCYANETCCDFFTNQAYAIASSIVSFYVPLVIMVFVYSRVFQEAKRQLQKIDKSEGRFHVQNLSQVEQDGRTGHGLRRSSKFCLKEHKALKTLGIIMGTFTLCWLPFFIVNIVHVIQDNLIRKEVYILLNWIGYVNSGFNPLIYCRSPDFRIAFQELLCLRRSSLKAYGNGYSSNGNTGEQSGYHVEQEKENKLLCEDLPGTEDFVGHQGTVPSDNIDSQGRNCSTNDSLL"}
{"SMILES": "Cc1nccc(COC(=O)N2C[C@@H]3[C@@H](CNC(=O)c4ccc5[nH]nnc5c4)[C@@H]3C2)n1", "inhibition [%]": -9.93}
{"SMILES": "CC(=O)N1CCC(c2ccc(C(=O)NC(=N)N)cc2C(F)(F)F)CC1", "inhibition [%]": -9.75}
{"SMILES": "O=C1CCc2cc(Nc3cc(OC4CCOCC4)c([N+](=O)[O-])cc3Cl)ccc2N1", "inhibition [%]": -1.73}
{"SMILES": "CN1CCN(C(=O)C(C)(C)c2ccc(C(=O)Nc3cn4cc(-c5ccncc5)ccc4n3)cc2)CC1", "inhibition [%]": 16.6}
{"SMILES": "O=C(O)c1cc(-c2ccc(C3CCNCC3)cc2)c2ccc(-c3ccc(C(F)(F)F)cc3)cc2c1", "inhibition [%]": 38.9}
{"SMILES": "C[C@@]1(Cc2ccc(C#N)cc2)C(=O)N(c2cc(Cl)cc(Cl)c2)c2ncc(C(=O)NC3(c4nc(C5CCC5)no4)CC3)n21", "inhibition [%]": -7.08}
{"SMILES": "C[C@H](NC(=O)c1cnc2n1[C@](C)(Cc1ccc(C#N)cc1)C(=O)N2c1cc(Cl)c(F)c(Cl)c1)C(=O)NC1(c2ccccn2)CC1", "inhibition [%]": -9.72}
{"SMILES": "CNC(=O)c1ccc(Nc2ncc(C(F)(F)F)c(NCc3nccnc3N(C)S(C)(=O)=O)n2)cc1", "inhibition [%]": -13.2}
{"SMILES": "Cc1c(NC(=O)c2cc(C(N)=O)nc3cc(F)ccc23)c(C(F)(F)F)nn1Cc1ccc(C(C)(C)C)cc1", "inhibition [%]": 24.1}
{"SMILES": "Cc1cc(C)c(-n2ccn3nc(-c4cccnc4)cc23)cc1NC(=O)c1cc(C#N)cc(S(F)(F)(F)(F)F)c1", "inhibition [%]": 25.6}
{"SMILES": "O=C(Nc1cccnn1)N1CCC(=Cc2cccc(Oc3ccc(C(F)(F)F)cn3)c2)CC1", "inhibition [%]": 0.51}
{"SMILES": "C[C@@H]1CN(c2cc(-c3nn(C)c4ccc(OC5(C)CC5)cc34)ncn2)C[C@H](C)O1", "inhibition [%]": 13.8}
{"SMILES": "CC(=O)Nc1c(F)cc(C(=O)N[C@H]2CC[C@H](O)CC2)cc1O[C@@H](C)c1ccccc1", "inhibition [%]": 28.1}
{"SMILES": "CC(=O)Nc1nc(CN2CCC[C@H](Cc3cc(C)nc(C)c3)C2)cs1", "inhibition [%]": -8.1}
{"SMILES": "Cc1c(N2CCCC2)nc2ccc(Br)cc2c1C(=O)NC[C@H](CCC(=O)O)c1ccccc1Cl", "inhibition [%]": 19.9}
{"data": "Study 3", "organism": "Sarcocystis neurona", "effect on": "parasite growth", "tested at": "10 µM", "notes": "secondary screen"}
{"SMILES": "CC1=C(CC(=O)O)c2cc(F)ccc2/C1=C\\c1ccc([S+](C)[O-])cc1 (stereo not shown)", "inhibition [%]": -39.8}
{"SMILES": "COC(=O)Nc1nc2ccc(C(=O)c3ccccc3)cc2[nH]1", "inhibition [%]": -138}
{"SMILES": "CN1CCN(C2=Nc3ccccc3Oc3ccc(Cl)cc32)CC1", "inhibition [%]": -41.2}
{"SMILES": "Nc1nnc(-c2cccc(Cl)c2Cl)c(N)n1", "inhibition [%]": -33}
{"SMILES": "CCN(CC)C(=S)SSC(=S)N(CC)CC", "inhibition [%]": 96.7}
{"SMILES": "COCCOC(=O)C1=C(C)NC(C)=C(C(=O)OC(C)C)C1c1cccc([N+](=O)[O-])c1 (stereo not shown)", "inhibition [%]": -31}
{"SMILES": "CCOc1cc(N)c(Cl)cc1C(=O)NCC1CN(Cc2ccc(F)cc2)CCO1 (stereo not shown)", "inhibition [%]": 66.2}
{"SMILES": "NC(=O)N1c2ccccc2CC(=O)c2ccccc21", "inhibition [%]": 52.9}
{"SMILES": "O=C(O)CCCc1ccccc1", "inhibition [%]": -30.9}
{"SMILES": "C#C[C@]1(O)CC[C@H]2[C@@H]3CCc4cc(O)ccc4[C@H]3CC[C@@]21C", "inhibition [%]": -77.9}
{"SMILES": "OCCN(CCO)c1nc(N2CCCCC2)c2nc(N(CCO)CCO)nc(N3CCCCC3)c2n1", "inhibition [%]": -51.3}
{"data": "Study 4", "target": "Cyclin-dependent kinase 4, with cyclin D3 (CDK4, Homo sapiens, UniProt P11802)", "effect on": "enzyme activity", "mode": "inhibitor", "tested at": "0.5 µM", "relative to": "control", "UniProt P11802, sequence (whole entry, looked up)": "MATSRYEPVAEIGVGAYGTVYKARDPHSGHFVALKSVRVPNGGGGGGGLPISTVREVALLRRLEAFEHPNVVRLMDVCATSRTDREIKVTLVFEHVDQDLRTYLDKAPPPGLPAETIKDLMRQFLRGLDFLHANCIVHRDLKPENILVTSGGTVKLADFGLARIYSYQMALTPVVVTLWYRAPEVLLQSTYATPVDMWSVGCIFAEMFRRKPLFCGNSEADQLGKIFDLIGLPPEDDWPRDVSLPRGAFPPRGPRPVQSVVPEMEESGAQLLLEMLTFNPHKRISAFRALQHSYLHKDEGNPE"}
{"Compound": "N#Cc1c(NC(=O)c2cccc3ccccc23)sc2c1CCCC2", "remaining activity [%]": 97.1}
{"Compound": "c1ccc(-c2[nH]ncc2-c2ccnc3ccccc23)nc1", "remaining activity [%]": 102}
{"Compound": "CCN(CC)C(=O)c1ccc(Nc2nc(OCC3CCCCC3)c3[nH]cnc3n2)cc1", "remaining activity [%]": 59.2}
{"Compound": "CN(C)C[C@H]1CCn2c(c(C3=C(c4cn(C)c5ccccc45)C(=O)NC3=O)c3ccccc32)C1", "remaining activity [%]": 99.7}
{"Compound": "Cc1cc2ncc(-c3ccccc3)nc2cc1C", "remaining activity [%]": 94.6}
{"Compound": "O=C1C(Cl)=C(N2C(=O)CCC2=O)C(=O)c2ccccc21", "remaining activity [%]": 107}
{"Compound": "CN([C@@H](Cc1ccc(OS(=O)(=O)c2cccc3cnccc23)cc1)C(=O)N1CCN(c2ccccc2)CC1)S(=O)(=O)c1cccc2cnccc12", "remaining activity [%]": 97.8}
{"Compound": "Ic1cccc(CSc2nnc(-c3ccncc3)o2)c1", "remaining activity [%]": 97.5}
{"Compound": "O=C(NC(NC(=S)Nc1ccc(F)c([N+](=O)[O-])c1)C(Cl)(Cl)Cl)C(c1ccccc1)c1ccccc1 (stereo not shown)", "remaining activity [%]": 93.7}
{"Compound": "O=c1cc(-c2cccc3c2Sc2ccccc2S3)oc(N2CCOCC2)c1", "remaining activity [%]": 99.2}
{"Compound": "Cc1nc2cc3nc(-c4cccs4)cnc3cc2n1C", "remaining activity [%]": 101}
{"Compound": "c1ccc(-c2cnc(Nc3ccc(OCCN4CCCC4)cc3)s2)cc1", "remaining activity [%]": 84.9}
{"Compound": "Nc1cccc(-c2cc3c(Oc4cccc(O)c4)ncnc3[nH]2)c1", "remaining activity [%]": 92.8}
{"Compound": "COc1cc2ncnc(Nc3ccc(O)c(Br)c3)c2cc1OC", "remaining activity [%]": 110}
{"Compound": "CCN(CC)CCNC(=O)c1c(C)[nH]c(/C=C2\\C(=O)Nc3ccc(Cl)cc32)c1C", "remaining activity [%]": 86.3}
{"Compound": "Cc1cn(-c2cc(NC(=O)c3ccc(C)c(Nc4nccc(-c5cccnc5)n4)c3)cc(C(F)(F)F)c2)cn1", "remaining activity [%]": 108}
{"Compound": "CCOc1nc(NC(=O)Cc2cc(OC)ccc2OC)cc(N)c1C#N", "remaining activity [%]": 95.2}
{"Compound": "N#C/C(=C\\c1ccc(O)c(O)c1)C(=O)NCc1ccccc1", "remaining activity [%]": 98}
{"Compound": "O=C1c2ccccc2-c2n[nH]c3cccc1c23", "remaining activity [%]": 104}
{"note": "Excerpt of the above (study 3):"}
{"SMILES": "COC(=O)Nc1nc2ccc(C(=O)c3ccccc3)cc2[nH]1", "inhibition [%]": -138}
{"SMILES": "CN1CCN(C2=Nc3ccccc3Oc3ccc(Cl)cc32)CC1", "inhibition [%]": -41.2}
{"SMILES": "Nc1nnc(-c2cccc(Cl)c2Cl)c(N)n1", "inhibition [%]": -33}
{"SMILES": "CCN(CC)C(=S)SSC(=S)N(CC)CC", "inhibition [%]": 96.7}
{"SMILES": "COCCOC(=O)C1=C(C)NC(C)=C(C(=O)OC(C)C)C1c1cccc([N+](=O)[O-])c1 (stereo not shown)", "inhibition [%]": -31}
